Measured values of several laboratories.
Numbered parts are unrelated; each lists some results of a single study.

Sample 1
Target: Histone acetyltransferase KAT6A, both winged helices, GST fusion (KAT6A, Homo sapiens, UniProt Q92794, residues 1-181)
Method: protein binding microarray
Form: double-stranded DNA, one strand shown
Matrix: in vitro
Concentration: not given
Notes: 8-mer, flanks averaged, mean of 2 arrays, mostly near background
Relative to: not given
Direction: higher = stronger binding
Target sequence (chain): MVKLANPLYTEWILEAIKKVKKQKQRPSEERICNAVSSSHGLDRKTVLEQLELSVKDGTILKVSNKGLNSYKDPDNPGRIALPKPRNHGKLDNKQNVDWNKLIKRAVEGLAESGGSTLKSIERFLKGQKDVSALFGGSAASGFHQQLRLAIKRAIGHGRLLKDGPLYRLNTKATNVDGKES
| Oligonucleotide | E-score |
| --- | --- |
| GAAGACCC | -0.181 |
| ACAACCCT | -0.105 |
| GACTGAAC | 0.0513 |
| CCTCCCAA | -0.0516 |
| CTTAATGA | -0.13 |
| CGGCTAAA | 0.27 |
| CGTGCTAA | 0.0203 |
| GTAGTAGA | -0.123 |
| AACCCACT | -0.0556 |
| ACAACAGA | -0.0645 |
| AAAAGGCC | 0.0942 |
| GGTGAGCA | -0.158 |
| AGTGTGCG | 0.0319 |
| CACGGATG | 0.222 |
| TGATCACA | -0.041 |
| ATATGACA | -0.152 |
| AAGGGCGA | -0.0118 |
| ACTAACGC | 0.103 |
| CATGAAGA | -0.143 |
| GAACCGGA | 0.166 |
| CGGAAGCC | 0.22 |
| ACCCTTGA | 0.0279 |
| GCTTAAGA | 0.0568 |
| GGCCGTAA | 0.268 |
| CAACTACA | -0.143 |

Sample 2
Target: Protein max, full length (MAX, Homo sapiens, UniProt P61244-2, residues 1-151)
Method: protein-binding microarray
Form: double-stranded DNA, one strand shown
Matrix: in vitro
Concentration: not given
Notes: k-mer, scored over probes, only values ≥0.25
Direction: higher = stronger binding
| Oligonucleotide | E-score |
| --- | --- |
| CGTGGCAA | 0.339 |
| CCACGTCG | 0.284 |
| ACACGTGG | 0.497 |
| ACCCACGT | 0.439 |
| ATGGTCGC | 0.251 |
| TAGCATGA | 0.325 |
| CGGCATGC | 0.407 |
| CTCGTGAC | 0.448 |
| ACGCGCAA | 0.251 |
| CGCCCACG | 0.389 |
| CTCATGTA | 0.291 |
| ACGTGCAA | 0.418 |
| CGTGCGAA | 0.39 |
| ATCACGAG | 0.418 |
| GCATGGAC | 0.354 |
| AATCGTGC | 0.251 |

Sample 3
Target: Interferon regulatory factor 7, full length, phosphomimetic (IRF7, Homo sapiens, UniProt Q92985, residues 1-503, S471D/S472D/S475D/S476D/S477D/S483D/S484D/S487D)
UniProt Q92985, sequence (whole entry, unmodified, looked up): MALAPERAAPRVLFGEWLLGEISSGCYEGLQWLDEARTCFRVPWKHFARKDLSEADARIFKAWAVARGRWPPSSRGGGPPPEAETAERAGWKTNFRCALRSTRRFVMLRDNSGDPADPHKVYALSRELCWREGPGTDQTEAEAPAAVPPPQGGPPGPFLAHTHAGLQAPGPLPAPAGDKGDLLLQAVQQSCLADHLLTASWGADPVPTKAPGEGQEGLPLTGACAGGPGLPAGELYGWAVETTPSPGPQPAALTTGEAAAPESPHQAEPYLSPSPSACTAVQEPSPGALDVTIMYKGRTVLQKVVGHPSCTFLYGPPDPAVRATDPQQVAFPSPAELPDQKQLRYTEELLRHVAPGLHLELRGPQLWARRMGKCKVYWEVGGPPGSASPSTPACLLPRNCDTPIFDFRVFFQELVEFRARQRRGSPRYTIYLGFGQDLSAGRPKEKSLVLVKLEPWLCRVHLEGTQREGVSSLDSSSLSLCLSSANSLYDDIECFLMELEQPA
Method: protein-binding microarray
Form: double-stranded DNA, one strand shown
Matrix: in vitro
Concentration: 2200 nM top
Notes: 60-bp whole probe
Added: salmon DNA 0.4 mg/ml
Relative to: random background probes
Direction: higher = stronger binding
Constant ends, left off below: GCCTAGCAC … GTCTTGATTCGCTTGACGCTGCTG
| Oligonucleotide | fitted relative affinity [z-score] |
| --- | --- |
| TTTTCATTGTTTTTCATCATGTGCTAG | 2.5 |
| GACGGTTTCCTTTCCGTGACGTGCTAG | 3.99 |
| GACGGTCTCGATTTCGGGACGTGCTAG | 1.75 |
| TCACTTACCTCACTCGTACTGTGCTAG | 2.26 |
| TTAGGTATCGGGTTTCGGTGAGTGCTA | 1.5 |
| TTCCAAATGCCCTCTCCATACGTGCTA | 1.26 |
| AGCAAGCCCCTTCCTTTCGGGTGCTAG | 0.945 |
| TCAGAAATCAGTATGTTACTGTGCTAG | -0.169 |
| GACGGTATCGGTTTCGGGATGTGCTAG | 4.65 |
| TATGGTATGCTCATGACAAAGTGCTAG | 0.343 |
| TTAGATTTCAGTATCGCTTAGTGCTAG | 1.14 |
| TTGGATATCGGGTTTCGATTAGTGCTA | 2.77 |
| GACGGTTTCGCACTGGGGACGTGCTAG | 3.43 |
| TTAGGTCTCCTTATCCTATAGTGCTAG | 0.922 |
| TTAGGTATCGGGACTGGTTTAGTGCTA | -0.239 |
| TCAAATTTATAAATAAAACTGTGCTAG | -1 |
| GACGATATCGGGTTTCAAGACGTGCTA | 0.363 |
| GACGAACTGGGGTATCGAGCCGTGCTA | -0.138 |
| TTTGATATCGGGACTGGATTAGTGCTA | 0.0423 |

Sample 4
Target: Prothrombin, mature alpha-thrombin (F2, Homo sapiens, UniProt P00734)
Method: aptamer microarray, sandwich
Form: DNA with 2'F-ANA
Matrix: in vitro
Concentration: 200 nM
Notes: whole 15-mer aptamer, many near background
Added: Cy3 exosite-II aptamer, 400 nM
Direction: higher = stronger binding
Oligonucleotide: GGTTGGTGTGGTTGG
| Modification | mean fluorescence intensity |
| --- | --- |
| 2'F-ANA at 4 6 7 10 12 13 14 | 73.8 a.u. |
| 2'F-ANA at 2 3 4 7 8 9 11 13 14 15 | 255 a.u. |
| 2'F-ANA at 1 2 3 5 6 7 8 9 12 | 132 a.u. |
| 2'F-ANA at 1 2 5 8 10 11 14 15 | 46.8 a.u. |
| 2'F-ANA at 5 6 7 8 9 11 13 | 58.5 a.u. |
| 2'F-ANA at 1 2 3 4 9 10 | 58.1 a.u. |
| 2'F-ANA at 3 10 13 15 | 608 a.u. |
| 2'F-ANA at 4 5 7 8 10 11 13 | 44.2 a.u. |
| 2'F-ANA at 1 4 6 13 15 | 80.2 a.u. |
| 2'F-ANA at 4 5 6 7 10 14 15 | 45.8 a.u. |
| 2'F-ANA at 2 3 6 8 | 812 a.u. |
| 2'F-ANA at 1 3 4 8 9 10 11 12 13 | 85 a.u. |
| 2'F-ANA at 3 5 6 7 8 9 10 11 13 14 | 51.6 a.u. |
| 2'F-ANA at 4 9 11 12 15 | 437 a.u. |
| 2'F-ANA at 1 2 3 4 7 9 12 13 14 | 65.2 a.u. |
| 2'F-ANA at 1 5 6 10 11 15 | 49.3 a.u. |
| 2'F-ANA at 2 3 6 8 9 10 14 15 | 258 a.u. |
| 2'F-ANA at 4 5 9 10 13 | 45.1 a.u. |
| 2'F-ANA at 3 9 10 12 15 | 719 a.u. |
| 2'F-ANA at 8 9 10 11 12 13 15 | 176 a.u. |
| 2'F-ANA at 5 6 9 10 13 14 15 | 45.4 a.u. |
| 2'F-ANA at 3 5 9 11 13 14 15 | 74.4 a.u. |
| 2'F-ANA at 1 4 7 9 10 11 15 | 82.1 a.u. |
| 2'F-ANA at 1 2 6 10 12 13 14 | 49.1 a.u. |

A few entries again (sample 4):
| Modification | mean fluorescence intensity |
| --- | --- |
| 2'F-ANA at 2 3 6 8 | 812 a.u. |
| 2'F-ANA at 1 3 4 8 9 10 11 12 13 | 85 a.u. |
| 2'F-ANA at 3 5 6 7 8 9 10 11 13 14 | 51.6 a.u. |
| 2'F-ANA at 4 9 11 12 15 | 437 a.u. |
| 2'F-ANA at 1 2 3 4 7 9 12 13 14 | 65.2 a.u. |
| 2'F-ANA at 1 5 6 10 11 15 | 49.3 a.u. |
| 2'F-ANA at 2 3 6 8 9 10 14 15 | 258 a.u. |
| 2'F-ANA at 4 5 9 10 13 | 45.1 a.u. |
